Measurements pooled from the literature.
Protocols differ between the studies behind these lines. ± marks the error that the study gave. ≈ marks a conversion by molar mass, not a printed value. Where no end group is shown, it is not given here.
UniProt P28335, sequence (whole entry, looked up): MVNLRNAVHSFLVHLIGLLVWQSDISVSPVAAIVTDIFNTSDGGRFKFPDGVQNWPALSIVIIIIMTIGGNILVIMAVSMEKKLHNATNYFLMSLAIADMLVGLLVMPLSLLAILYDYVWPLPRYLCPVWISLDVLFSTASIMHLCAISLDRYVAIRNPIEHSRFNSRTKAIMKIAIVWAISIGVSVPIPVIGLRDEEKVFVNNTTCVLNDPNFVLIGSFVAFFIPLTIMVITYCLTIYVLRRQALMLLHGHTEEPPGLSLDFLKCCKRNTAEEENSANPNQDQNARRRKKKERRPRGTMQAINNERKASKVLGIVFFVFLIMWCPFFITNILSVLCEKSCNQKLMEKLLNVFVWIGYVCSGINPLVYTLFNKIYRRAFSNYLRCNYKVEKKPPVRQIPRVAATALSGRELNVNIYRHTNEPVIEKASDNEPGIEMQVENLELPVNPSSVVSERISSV

Substance | target or system | assay | test system | setting | how to read | endpoint | result
CC[C@H](C)[C@H](NC(=O)[C@H](CCCCN)NC(=O)[C@H](CCC(=O)O)NC(=O)[C@H](CCCCN)NC(=O)[C@H](CO)NC(=O)[C@H](CCCCN)NC(=O)[C@H](CCCNC(=N)N)NC(=O)[C@H](Cc1ccccc1)NC(=O)[C@H](Cc1ccccc1)NC(=O)[C@H](CC(=O)O)NC(=O)CNC(=O)[C@H](CC(C)C)NC(=O)[C@@H](N)CC(C)C)C(=O)NCC(=O)N[C@@H](CCCCN)C(=O)N[C@@H](CCC(=O)O)C(=O)N[C@@H](Cc1ccccc1)C(=O)N[C@@H](CCCCN)C(=O)N[C@@H](CCCNC(=N)N)C(=O)N[C@H](C(=O)N[C@H](C(=O)N[C@@H](CCC(N)=O)C(=O)N[C@@H](CCCNC(=N)N)C(=O)N[C@H](C(=O)N[C@@H](CCCCN)C(=O)N[C@@H](CC(=O)O)C(=O)N[C@@H](Cc1ccccc1)C(=O)N[C@@H](CC(C)C)C(=O)N[C@@H](CCCNC(=N)N)C(=O)N[C@@H](CC(N)=O)C(=O)N[C@@H](CC(C)C)C(=O)N[C@H](C(=O)N1CCC[C@H]1C(=O)N[C@@H](CCCNC(=N)N)C(=O)N[C@H](C(=O)N[C@@H](CCC(=O)O)C(=O)N[C@@H](CO)C(=O)O)[C@@H](C)O)C(C)C)[C@@H](C)CC)C(C)C)[C@@H](C)CC | Staphylococcus aureus |  | JE2 SAUSA300_1465 transposon mutant | 12.5% TSB | reference: wild type over mutant | MIC ratio | 10 fold
CN[C@@](C)(C[18F])C(=O)O | SK-OV-3 tumour model |  | host not given, liver | 1 h, tumour-bearing |  | tracer uptake | 2.8 %ID/g
STFFRLFNRSFTQGRRRRSVQWCA | Streptococcus gordonii | OD600 | peptide, ATCC 10558, 4 h single-species biofilm | 128 µg/ml, 5 min exposure, OD600 read over 5 h |  | biofilm growth | no effect
O=C/C=C/c1ccccc1 | Candida tropicalis |  | MTCC 230 | 1000 µg/mL, 18 h |  | zone of inhibition | 11 mm
C[C@H]1CNCCc2ccc(Cl)cc21 |  |  | Sprague-Dawley rat, male, plasma | subcutaneous, 0.5 mg/kg, 120 min |  | plasma concentration | 4.83 ± 0.13 ng/mL
Cc1ccnc2c1NC(=O)c1cccnc1N2C1CC1 | Human immunodeficiency virus 1 | viral replication | human PBMC | 6 days |  | IC90 | 0.18 µM
CC(=O)c1c(O)c(C)c(O)c2c1OC1=CC(=O)C(=C(C)N[C@@H](CCCNC(=N)N)C(=O)O)C(=O)[C@@]12C | Candida tropicalis | broth microdilution | ATCC 750 fluconazole and amphotericin B resistant | 24 and 48 h |  | MIC99 | 12 µM (≈ 6.01 µg/mL)
Cc1ccccc1-c1nc(CN2CCC(C(=O)NCC3CCCO3)CC2)c(C)o1 (stereo not drawn) | Hepatitis C virus | HCV infection, Gaussia luciferase reporter | Huh7.5.1 reporter cells |  | reference: 10 µM cyclosporin A, DMSO, negative means inhibition | maximal response | -23.2%
CC(=NNC(=O)CN1c2c(-c3ccccc3)n[nH]c2-c2ccccc2S1(=O)=O)c1cc(C)oc1C | HIV-1 | viral replication | PBMC |  |  | EC90 | > 100 µM
SSASAW | rhesus rotavirus |  | peptide, newborn BALB/c mice, RRV biliary atresia | intraperitoneal, 500 µg at birth and days 1 and 2, 21 days |  | mice with biliary atresia symptoms | 100%
NNC(=O)Cn1c2ccccc2c2cn[nH]c(=O)c21 | MCF7 | RT-PCR, measured: PUMA |  | 5 µM, 48 h, normalised to β-actin | reference: untreated | fold change | 6.88
CNC(C)Cc1ccc2c(c1)OCO2 (racemic) |  | Drug Effects Questionnaire, measured: Feel Drug | human | oral, 1.5 mg/kg, mean over session, unit not given | reference: pre-dose baseline | subjective drug effect rating | 44.4
VDHVFLRF-NH2 (C-amide) | Drosophila melanogaster | gut contraction | adult gut | 1 µM, within 10 min | reference: DMS effect | inhibition | 100%
C=C1[C@@H](C)[C@H]2[C@H](Cc3ccccc3)NC(=O)[C@]23[C@H](O)/C=C/[C@](C)(O)C[C@@H](C)C/C=C/[C@H]3[C@@H]1O | Phyllosticta citricarpa |  | Citrus sinensis leaf disc | 10 µL of 10 mg/mL, 21 days, methanol solution |  | pycnidia number | 172 ± 8
CP(=O)(O)CCC(N)C(=O)O (stereo not drawn) | Setaria faberi |  |  | 60 g/ha, 13 days, SETFA, post-emergence spray | reference: untreated (0%), complete kill (100%) | herbicidal activity | 100%
CCCCCCCOc1c(OC)cc(NC(C)CCCNC(=O)C(N)CCCNC(=N)N)c2nc(C(C)(C)C)ccc12 (stereo not drawn) | Staphylococcus aureus |  | MRSA ATCC 33591 |  |  | MBC | > 20 µg/mL
CC(C)c1ccc2c(c1)CC[C@H]1[C@](C)(CN)CCC[C@]21C | FF2441 | cell growth or viability, MTS |  | 48 h |  | IC50 | 5.98 µM
CCCCCCCOc1c(OC)cc(NC(C)CCCNC(=O)C(N)Cc2cc3ccccc3[nH]2)c2nc(C(C)(C)C)ccc12 (stereo not drawn) | Staphylococcus aureus | microbial killing | ATCC33591 MRSA | drug-resistant strain |  | MBC | 10 µg/mL (≈ 16.2 µM)
c1ccc(CCN2CCCCC2)cc1 | HTR2C (Homo sapiens, UniProt P28335) | binding | NIH-3T3-Po | with: [3H]mesulergine 0.40 nM |  | Ki | > 10 µM
CCCCCCCOc1c(OC)cc(NC(C)CCCNC(=O)C(N)C(C)CC)c2nc(C(C)(C)C)ccc12 (stereo not drawn) | Staphylococcus aureus | microbial killing | ATCC33591 MRSA | drug-resistant strain |  | MBC | 5 µg/mL (≈ 9.21 µM)
CC(N)C12CC3CC(CC(C3)C1)C2 (stereo not drawn) | Influenza A virus H3N2 | viral replication, MTS | MDCK |  |  | EC50 | 0.6 µM

Excerpt of the above:
Substance | target or system | assay | test system | setting | how to read | endpoint | result
CCCCCCCOc1c(OC)cc(NC(C)CCCNC(=O)C(N)C(C)CC)c2nc(C(C)(C)C)ccc12 (stereo not drawn) | Staphylococcus aureus | microbial killing | ATCC33591 MRSA | drug-resistant strain |  | MBC | 5 µg/mL (≈ 9.21 µM)
